Experimental data from different studies.
Parts stem from different laboratories: compare values within a part only.

Set 1 — method: aptamer microarray, sandwich; molecule type: DNA with 2'F-ANA; sample: in vitro; concentration: 200 nM; together with: Cy3 exosite-II aptamer, 400 nM; reading: higher = stronger binding; quantity: mean fluorescence intensity; oligonucleotide: GGTTGGTGTGGTTGG
Target: Prothrombin, mature alpha-thrombin (F2, Homo sapiens, UniProt P00734)
Setting: whole 15-mer aptamer, many near background
2'F-ANA at 6 7 14: 203 a.u.
2'F-ANA at 2 3 5 6 9 10 11 13: 47.7 a.u.
2'F-ANA at 3 4 9 10 11 14: 221 a.u.
2'F-ANA at 1 3 4 7 8 10 12 13 14: 53.1 a.u.
2'F-ANA at 3 9 10 11 12 13 14 15: 386 a.u.
2'F-ANA at 1 3 4 6 11 12 13 14: 68.4 a.u.
2'F-ANA at 2 4 5 6 7 11 12 13 14: 78.9 a.u.
2'F-ANA at 2 4 6 7 8 9 10 13: 85.2 a.u.
2'F-ANA at 1 3 4 10 11 12 13: 69.2 a.u.
2'F-ANA at 1 4 6 7 8 10 14 15: 46.1 a.u.
2'F-ANA at 1 2 4 6 8 9 11 13 14 15: 50 a.u.
2'F-ANA at 1 2 6 7 9 13 15: 117 a.u.
2'F-ANA at 2 4 6 13 14: 78.5 a.u.
2'F-ANA at 4 6 7 10 11 13 14: 73.5 a.u.
2'F-ANA at 1 4 5 8 9 10 15: 49.4 a.u.
2'F-ANA at 1 2 3 4 5 10 14: 48.1 a.u.
2'F-ANA at 1 2 3 5 12 14 15: 46 a.u.

Set 2 — method: protein-binding microarray; molecule type: double-stranded DNA, one strand shown; sample: in vitro; concentration: 0.8 µM; setting: whole 60-bp probe, no competitor; reading: higher = stronger binding; quantity: fluorescence intensity
Target: Centromere-binding protein 1, full length, N-terminal tag (CBF1, Saccharomyces cerevisiae, UniProt P17106, residues 1-351)
Sequence of UniProt P17106 (whole entry, looked up): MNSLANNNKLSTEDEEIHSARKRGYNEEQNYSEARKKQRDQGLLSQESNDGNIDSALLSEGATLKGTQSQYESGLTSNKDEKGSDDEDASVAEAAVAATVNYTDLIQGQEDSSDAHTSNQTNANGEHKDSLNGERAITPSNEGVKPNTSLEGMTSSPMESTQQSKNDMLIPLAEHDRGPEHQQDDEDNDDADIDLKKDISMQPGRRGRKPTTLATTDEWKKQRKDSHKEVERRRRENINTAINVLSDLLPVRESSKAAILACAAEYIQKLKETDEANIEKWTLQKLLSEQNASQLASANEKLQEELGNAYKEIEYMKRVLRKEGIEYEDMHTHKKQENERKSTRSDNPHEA
CTATTTTGTTACTGTCATGTGAATAAAACTTATTTCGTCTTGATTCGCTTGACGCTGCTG: 1470 a.u.
GAATGTAACAGTAATCACGAATAGCAGCAGATTTAGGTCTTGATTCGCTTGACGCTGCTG: 542 a.u.
GAATATAAATCCCATCTGATGATGATCTGAAAATAGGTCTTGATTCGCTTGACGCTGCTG: 612 a.u.
CTAATGTAAGGATAGAACGTGAAGATCGAGAAATTCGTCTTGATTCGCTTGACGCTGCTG: 583 a.u.
GAACCGTTTTCGTCGTGCATCAGGAACGATCTTTAGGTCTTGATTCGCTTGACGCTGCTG: 543 a.u.
CTAACGTCGGAGAGGCAGGTGATCTTCGGCTCGTTCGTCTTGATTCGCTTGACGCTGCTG: 960 a.u.
GAAATACCTTTGTTCAAGGTGGCGTTTGCCGTATAGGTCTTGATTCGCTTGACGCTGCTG: 533 a.u.
CTAAATCTTCAAAATCATGTGGATTTTTATTGATTCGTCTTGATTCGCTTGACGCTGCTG: 792 a.u.
CCTAACTACTATAAAGAGGTGACATAGCTTCGTACAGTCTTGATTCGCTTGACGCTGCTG: 505 a.u.
CTACAATATCCGGGTCACGTGAAAGTTAGATAATTCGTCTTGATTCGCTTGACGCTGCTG: 20200 a.u.
GAACCTCCCGAACAACGTGAAATCTTTTTGCTTTAGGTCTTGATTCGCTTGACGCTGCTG: 607 a.u.
CCTAACTACTATAATGATGACATATAGCTTCGTACAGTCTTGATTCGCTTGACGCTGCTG: 535 a.u.
CTAGAAAGCGCACATGTGATATCTCGCAATTTCTTCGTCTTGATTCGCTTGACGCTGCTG: 1680 a.u.
CTATGTTCTTGAGAAAACAACACGTTTACTTGTTTCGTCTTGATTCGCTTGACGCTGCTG: 586 a.u.
CTAGACTAAAGAAGTGGTGTGAGTATAATTAACTTCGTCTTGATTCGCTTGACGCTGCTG: 538 a.u.
CTAACACATTAACCACACGTTCAGATATGTATGTTCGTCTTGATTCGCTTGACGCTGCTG: 555 a.u.
CTACCGTGCGTTCTCCCCGTGCCTTGATAAGCATTCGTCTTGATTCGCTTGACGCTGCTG: 687 a.u.
CTAATAAAGCATTGTGATGTTAAAGAATGACGATTCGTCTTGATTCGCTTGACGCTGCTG: 550 a.u.
GAAATTTAATTCTGCCACATGGTAGGTTCATTTTAGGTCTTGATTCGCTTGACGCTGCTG: 641 a.u.
CTATATGTAGCTACCAACGTGGGAAAACCTTTCTTCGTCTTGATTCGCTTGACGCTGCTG: 545 a.u.
GAAATTTGCCAGGGTCACAATGTCGTTTGCCTCTAGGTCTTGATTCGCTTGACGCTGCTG: 537 a.u.
GAACCGGATCGTAGTCACATGATCAAATAAATTTAGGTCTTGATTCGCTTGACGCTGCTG: 14400 a.u.
GAACGTTTTATTTCACTCACCTGTTGTCGAAAATAGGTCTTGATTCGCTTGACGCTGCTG: 770 a.u.
GAATGGAAATAATCGATCACCATCGTTGCCTCTTAGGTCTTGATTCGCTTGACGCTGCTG: 489 a.u.
GAAATAAGGCAGAGGAGCGTCACCGGTAACCCTTAGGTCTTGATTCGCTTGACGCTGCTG: 475 a.u.

Set 3 — method: RNA Bind-n-Seq; molecule type: RNA; sample: in vitro; concentration: 1 µM; setting: whole 134-nt RNA, ends assumed; together with: 150 mM KCl; baseline: input library; reading: higher = stronger binding; quantity: log2 enrichment
Target: Ras GTPase-activating protein-binding protein 1, RRM domain (G3BP1, Homo sapiens, UniProt Q13283)
Sequence of UniProt Q13283 (whole entry, looked up): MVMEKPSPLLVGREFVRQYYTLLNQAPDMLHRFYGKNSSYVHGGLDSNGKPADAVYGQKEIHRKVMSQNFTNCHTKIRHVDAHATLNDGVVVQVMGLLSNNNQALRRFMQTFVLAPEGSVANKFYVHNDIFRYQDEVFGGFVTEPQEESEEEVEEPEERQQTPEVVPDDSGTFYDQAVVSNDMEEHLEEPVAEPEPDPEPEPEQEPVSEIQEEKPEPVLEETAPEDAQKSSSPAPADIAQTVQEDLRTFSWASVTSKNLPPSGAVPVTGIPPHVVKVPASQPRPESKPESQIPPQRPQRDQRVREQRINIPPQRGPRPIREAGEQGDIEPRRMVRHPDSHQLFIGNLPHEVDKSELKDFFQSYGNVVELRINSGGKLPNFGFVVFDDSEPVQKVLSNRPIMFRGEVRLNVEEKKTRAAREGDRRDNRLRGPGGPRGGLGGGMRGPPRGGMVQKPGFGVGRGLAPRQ
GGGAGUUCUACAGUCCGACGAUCACCAUGCAGGUGGGCAUCUUUGGGAAGUGGGCCAAGGGGGGGAUAGGGAGGGGGGUAACACUUUGGGAACAGGUGGUCCCAGGUCGUUUCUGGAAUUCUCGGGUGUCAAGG: -0.498
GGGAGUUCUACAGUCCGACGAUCACCAUGCAGGUGGGCAUCUUUGGGAAGUGGGGGAAGGGGGGGAUAGGGAGGGGGGUAACACUUUGGGAACAGGUGGUCCCAGGUCGUUUCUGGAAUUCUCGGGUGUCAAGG: -0.612
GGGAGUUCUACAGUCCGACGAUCAGUCCUGUGCUACACAUCGUAUGUACCGAAUCGGGGUUUUGGUUUUGGGGUUUUGGGGAAAGUAUUAUGUUACGCCGUUCGGAUCUGCACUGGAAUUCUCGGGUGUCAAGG: 0.0434
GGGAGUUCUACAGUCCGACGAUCCCUCAAGUCCUGUGCUACACAUCGUAUGUACCGAAUCGGGAGGGGAGGAGGGAAAGUAUUAUGUUACGCCGUUCGGAUCUGCACUUCCAGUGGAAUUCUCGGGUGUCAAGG: -0.0737
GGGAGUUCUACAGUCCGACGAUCGCAGGAAGUAAAAACAAAUGGAAAUGCUUCGGAUAGUGGCAGGGGUGAAAGUUGCUAAGGAAAGGGUGGGAUGGGAGUGGGUAAAGAGUUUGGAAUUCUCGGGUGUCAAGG: 1.36
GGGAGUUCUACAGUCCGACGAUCUCCUGUGCUACACAUCGUAUGUACCGAAUCGGGGAGGGGUUUUUUUGGGGAAAAAGGGGAAAGUAUUAUGUUACGCCGUUCGGAUCUGCAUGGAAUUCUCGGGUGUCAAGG: 0.654
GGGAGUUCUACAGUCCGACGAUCUGGCCCUGGUGGCAUGCGGGGAGGAAGAGGUGGCCUCAUGGAUCGUGGUGGUCCCGGUGGAAUGUUCAGAGGUGGCCGUGGUGGGGACAGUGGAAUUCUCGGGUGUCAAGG: 1.85
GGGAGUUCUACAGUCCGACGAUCUUUUGCAUUUAGGGUUUUAACCAAGAAGAUCUGGAAGAAGAAAAAGGUGAAACACAGGUAAAAGAAGCAGAAGAUUCAGAUUCUGAUGAUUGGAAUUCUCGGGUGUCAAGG: -0.244
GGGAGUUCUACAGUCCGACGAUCGCAGGAAGUAAAAACAAAUGGAAAUGCUUCGGAUAGUGGCAGGUGUGGGGGUUGCUAAGGAAAGGGUGGGAUGGGAGUGGGUAAAGAGUUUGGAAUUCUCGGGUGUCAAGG: 1.69
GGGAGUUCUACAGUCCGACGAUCUUCCUCAAGUCCUGUGCUACACAUCGUAUGUACCGAAUCGGAGGAGGUGGAAAGUAUUAUGUUACGCCGUUCGGAUCUGCACUUCCAGCAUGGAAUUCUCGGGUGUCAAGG: -0.338

Set 4 — method: protein binding microarray; molecule type: double-stranded DNA, one strand shown; sample: in vitro; concentration: not given; baseline: not given; reading: higher = stronger binding; quantity: E-score
Target: Histone acetyltransferase KAT6A, winged helix 1, GST fusion (KAT6A, Homo sapiens, UniProt Q92794, residues 1-85)
Setting: 8-mer, flanks averaged, mean of 2 arrays, mostly near background
Residues (chain): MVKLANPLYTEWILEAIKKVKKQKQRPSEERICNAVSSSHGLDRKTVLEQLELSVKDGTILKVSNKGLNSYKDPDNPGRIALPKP
AAATTACA: 0.0364
ATTTCGCC: -0.0643
CGTATCAG: 0.105
AGGACGCG: 0.264
ACTAATCC: 0.088
AACCGCAA: 0.123
ACAAAGCC: 0.0508
ATGCATGG: -0.0328
ACCTCGGG: 0.0819
GAGCGCAC: 0.305
GTTTGTAA: -0.13
ATGTTCGC: 0.102
GCCTCAGA: 0.161
CAGGACGC: 0.0641
GTGTAGGA: -0.207
CCCGAAAG: -0.045
GCAAATGC: 0.0602
CGAGGAAG: -0.184
ATTAGCCA: -0.215
AGACAAAA: -0.2
ACACCTGT: -0.071
TGGGACAA: -0.208
AGTCGTAT: -0.0471
ATGGAGCC: -0.102
CGTTCACA: -0.042

For quick reference, copied from above (set 4):
CAGGACGC: 0.0641
ACAAAGCC: 0.0508
ATGGAGCC: -0.102
ATGCATGG: -0.0328
CGAGGAAG: -0.184
ACACCTGT: -0.071
CGTATCAG: 0.105
GCAAATGC: 0.0602
CGTTCACA: -0.042
ATTTCGCC: -0.0643
GCCTCAGA: 0.161
